Published values collected from several papers.
Every numbered part comes from another study and shows a few of its results, in no order.

Sample 1 — method: protein binding microarray; form: double-stranded DNA, one strand shown; matrix: in vitro; concentration: not given; reference: not given; reading: higher = stronger binding
Target: Histone acetyltransferase KAT6A, both winged helices, GST fusion (KAT6A, Homo sapiens, UniProt Q92794, residues 1-181)
Notes: 8-mer, flanks averaged, mean of 2 arrays, mostly near background
Target sequence (chain): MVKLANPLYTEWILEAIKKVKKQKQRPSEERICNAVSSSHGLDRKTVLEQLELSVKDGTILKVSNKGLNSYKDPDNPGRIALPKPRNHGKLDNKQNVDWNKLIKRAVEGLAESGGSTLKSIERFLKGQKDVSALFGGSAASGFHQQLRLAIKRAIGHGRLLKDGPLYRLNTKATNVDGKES
| Sequence | E-score |
| --- | --- |
| ACTGGTAG | -0.173 |
| AGCGAATA | -0.0103 |
| CACTTTCG | -0.0564 |
| ATCAGCGC | 0.259 |
| GTCCGGAA | 0.106 |

Sample 2 — method: RNA Bind-n-Seq; form: RNA; matrix: in vitro; concentration: 1 µM; notes: whole 134-nt RNA, ends assumed; with: 150 mM KCl; reference: input library; reading: higher = stronger binding
Target: Ras GTPase-activating protein-binding protein 1, RRM domain (G3BP1, Homo sapiens, UniProt Q13283)
UniProt Q13283, sequence (whole entry, looked up): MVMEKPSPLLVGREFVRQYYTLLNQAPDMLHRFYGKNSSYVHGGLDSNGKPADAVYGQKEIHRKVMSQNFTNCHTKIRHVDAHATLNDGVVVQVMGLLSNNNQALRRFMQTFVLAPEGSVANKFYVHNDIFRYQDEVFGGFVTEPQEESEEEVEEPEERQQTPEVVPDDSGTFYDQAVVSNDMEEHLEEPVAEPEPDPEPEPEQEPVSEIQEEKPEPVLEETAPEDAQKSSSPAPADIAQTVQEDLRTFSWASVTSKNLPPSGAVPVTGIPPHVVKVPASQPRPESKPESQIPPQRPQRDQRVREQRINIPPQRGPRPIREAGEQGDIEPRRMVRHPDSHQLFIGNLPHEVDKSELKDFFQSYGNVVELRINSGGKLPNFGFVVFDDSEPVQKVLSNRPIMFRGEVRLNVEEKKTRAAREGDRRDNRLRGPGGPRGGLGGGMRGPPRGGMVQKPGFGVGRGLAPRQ
| Sequence | log2 enrichment |
| --- | --- |
| GGGAGUUCUACAGUCCGACGAUCCAAGUCCUGUGCUACACAUCGUAUGUACCGAAUCGGUUUGGGGUUUGGUUUGGGGAAAGUAUUAUGUUACGCCGUUCGGAUCUGCACUUCUGGAAUUCUCGGGUGUCAAGG | -0.275 |
| GGGAGUUCUACAGUCCGACGAUCCACAGACAACACGCACCCACACAGACACAGAGGGAAGAGGUUGGGAUGGGGACAGGGUGCACAGCAGGGCGGGGUAGGACCCCAGCCCCUUGGAAUUCUCGGGUGUCAAGG | -0.0149 |
| GGGAGUUCUACAGUCCGACGAUCCCUCAAGUCCUGUGCUACACAUCGUAUGUACCGAAUCGGGGAGGAGGGAGGGGAAAGUAUUAUGUUACGCCGUUCGGAUCUGCACUUCCAUGGAAUUCUCGGGUGUCAAGG | 0.0821 |
| GGGAGUUCUACAGUCCGACGAUCAGUCCUGUGCUACACAUCGUAUGUACCGAAUCGGGUUUUUGGUUUUUGGGUUUUUGGGAAAGUAUUAUGUUACGCCGUUCGGAUCUGCACUGGAAUUCUCGGGUGUCAAGG | -0.102 |

Sample 3 — method: protein-binding microarray; form: double-stranded DNA, one strand shown; matrix: in vitro; concentration: 250 nM; notes: 60-bp whole probe; with: salmon DNA 0.4 mg/ml; reference: random background probes; reading: higher = stronger binding
Target: Interferon regulatory factor 5, full length, phosphomimetic (IRF5, Homo sapiens, UniProt Q13568-2, residues 1-514, K96S/S451D/S453D/S456D/S462D)
| Sequence | log fluorescence [z-score] |
| --- | --- |
| GCCTAGCACTTAGGTTTCGGGTTGCGGTTAGTGCTAGTCTTGATTCGCTTGACGCTGCTG | 8.78 |
| GCCTAGCACCTAGGACTGGGACTGGGTTAGTGCTAGGTCTTGATTCGCTTGACGCTGCTG | -0.528 |
| GCCTAGCACTCACCTCCCTAATTCTGACTGTGCTAGGTCTTGATTCGCTTGACGCTGCTG | 0.093 |
| GCCTAGCACCTTAGCATGGGGAGGGAGCAGTGCTAGGTCTTGATTCGCTTGACGCTGCTG | 0.0386 |

Other studies, line by line
| Molecule | target | assay | system | conditions | how to read | measurement | value |
| --- | --- | --- | --- | --- | --- | --- | --- |
| PhoQ, residues 284 288 289 292 302 303 TLMATV | PhoP, residues 12 14 15 18 19 SYFRT (Escherichia coli, UniProt P23836) | Sort-seq, measured: YFP reporter | E. coli | PhoQ-PhoP variant library, with: 10 µM Mg2+ | reference: high Mg2+ state, higher = stronger signaling | fold induction | 21.7 |

Repeated from above (other studies, line by line):
| Molecule | target | assay | system | conditions | how to read | measurement | value |
| --- | --- | --- | --- | --- | --- | --- | --- |
| PhoQ, residues 284 288 289 292 302 303 TLMATV | PhoP, residues 12 14 15 18 19 SYFRT (Escherichia coli, UniProt P23836) | Sort-seq, measured: YFP reporter | E. coli | PhoQ-PhoP variant library, with: 10 µM Mg2+ | reference: high Mg2+ state, higher = stronger signaling | fold induction | 21.7 |
